Measurements collected from several papers.
Lines come from different studies, so protocols differ. “And” joins repeats or separate records; there may be more than shown. ± marks the error that the study gave.
ADRA2C: Alpha-2C adrenergic receptor (ADRA2C, Homo sapiens, UniProt P18825)
UCHL1: Ubiquitin carboxyl-terminal hydrolase isozyme L1 (UCHL1, Homo sapiens, UniProt P09936)
Voltage-dependent P/Q-type calcium channel subunit alpha-1A: Voltage-dependent P/Q-type calcium channel subunit alpha-1A (Homo sapiens, UniProt O00555)
BEST1: BEST1 (Homo sapiens, UniProt O76090)
T1: G-quadruplex DNA (Homo sapiens); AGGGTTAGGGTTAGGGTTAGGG
T2: G-quadruplex DNA (Homo sapiens); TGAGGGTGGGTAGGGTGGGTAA

Compound | target | assay | system | conditions | scale | measurement | value
CO[C@@H]1O[C@@H](C)[C@@H](O)[C@@H](O)[C@@H]1O | fleA (Aspergillus fumigatus, UniProt Q4WW81) | ITC |  |  |  | -TΔS | 1.84 kcal/mol
Cc1cc(Oc2ncccc2CN2CCN(c3ccc([N+](=O)[O-])cc3C(F)(F)F)CC2)ccc1-c1c(C)c(=O)[nH]c(=O)n1C | ADRA2C | binding, radioligand binding |  | together with: [3H]rauwolscine | relative to: Ki alpha2A over Ki alpha2C | selectivity ratio | 5
CC[C@H](C)[C@@H]1NC(=O)[C@H](C)NC(=O)[C@H]([C@@H](C)CC)NC(=O)[C@H](CCC(N)=O)NC(=O)[C@H](C)NC(=O)[C@H](CCCNC(=N)N)NC(=O)[C@H](C(C)C)NC(=O)[C@H](CC(C)C)NC(=O)[C@H](CCC(=O)O)NC(=O)[C@H](CCCNC(=N)N)NC(=O)CNC(=O)[C@@H](NC(=O)[C@H](CC(C)C)NC(=O)[C@H](CCCCN)NC(=O)[C@@H](NC(=O)[C@@H](NC(=O)[C@H](CCC(=O)O)NC(=O)[C@H](CCC(=O)O)NC(=O)[C@H](CCSC)NC(=O)[C@H](Cc2c[nH]c3ccccc23)NC(=O)[C@H](CO)NC(=O)[C@@H](N)CC(=O)O)C(C)C)[C@@H](C)CC)CSSC[C@@H]2NC(=O)[C@@H](NC(=O)[C@H](CCCCN)NC(=O)[C@H](CC(N)=O)NC(=O)[C@H](C)NC(=O)[C@H](CC(C)C)NC(=O)[C@H](C)NC(=O)[C@H](CO)NC(=O)[C@H](Cc3ccc(O)cc3)NC(=O)[C@H](CC(C)C)NC(=O)[C@H](CCC(N)=O)NC(=O)c3ccc(-c4c5ccc(=[N+](C)C)cc-5oc5cc(N(C)C)ccc45)c(C(=O)[O-])c3)CSSC[C@H](NC(=O)CNC(=O)[C@H](C(C)C)NC(=O)[C@H](Cc3c[nH]cn3)NC2=O)C(=O)N[C@@H]([C@@H](C)O)C(=O)N[C@@H](CCCCN)C(=O)N[C@@H](CCCNC(=N)N)C(=O)N[C@@H](CO)C(=O)N[C@@H](CC(C)C)C(=O)N[C@@H](C)C(=O)N[C@@H](CCCNC(=N)N)C(=O)N[C@@H](Cc2ccccc2)C(=O)N[C@H](C(=O)O)CSSC[C@@H](C(=O)NCC(=O)N[C@@H](CCSC)C(=O)N[C@@H](CO)C(=O)N[C@H](C(=O)N[C@@H](Cc2c[nH]c3ccccc23)C(=O)N[C@@H](CO)C(=O)O)[C@@H](C)O)NC1=O | Relaxin receptor 1 (RXFP1, Homo sapiens, UniProt Q9HBX9, F76A/Y80A) | NanoBRET dissociation |  | infinite dilution, together with: 10 µM relaxin |  | koff slow phase | 0.000927 s⁻¹
Cc1cc(Oc2ncccc2CN2CCN(c3ccccc3C#N)CC2)ccc1-c1c(C)c(=O)[nH]c(=O)n1C | ADRA2C | binding, radioligand binding |  | together with: [3H]rauwolscine | relative to: Ki alpha2B over Ki alpha2C | selectivity ratio | 4
NCCCC(=O)O | SLC6A6 (Homo sapiens, UniProt P31641, L306A) | binding, microscale thermophoresis |  | 977 nM, room temperature, together with: 50 nM labelled protein | higher = more binding | normalised MST signal | 0.128
COc1cccc2c(Nc3ccc4[nH]c(C(=O)N/N=C/c5ccc(SC)cc5)cc4c3)cc(C)nc12 | Nuclear receptor subfamily 1 group I member 3 (Homo sapiens, UniProt Q14994) | reporter gene, Gal4 hybrid reporter |  | 3 µM | relative to: vehicle | activation | 1.08 fold
CCCCn1/c(=C/C=C/C2=[N+](CCC[N+](C)(C)C)c3ccc(F)cc3C2(C)C)c2cccc3cccc1c32 | T1, G-quadruplex DNA (Homo sapiens) | CD titration |  | KCl 50 mM, strong ICD |  | binding | binds
OC[C@H]1OC(O)[C@H](O)[C@@H](O)[C@@H]1O (stereo partly drawn) | Hexokinase-3 (HK3, Homo sapiens, UniProt P52790, E254A) | substrate inhibition |  | mutant E254A, complete substrate inhibition model, together with: ATP 20 mM |  | kcat | 70 ± 5 s⁻¹
Nc1nc(SCc2ccc(Cl)cc2)nn1S(=O)(=O)c1ccc(Br)cc1 | LYPLAL1 (Homo sapiens, UniProt Q5VWZ2) | enzyme activity, activator, gel-based ABPP | purified protein | concentration not given, together with: FP-rhodamine | relative to: DMSO | probe labeling increase | 2.3 fold
CNC(=O)[C@H](CNC(=O)Cn1[nH]c(=O)c2ccccc2c1=O)NC(=O)c1cnc(C)cn1 | TNKS (Homo sapiens, UniProt O95271) | enzyme activity, inhibitor |  |  |  | ligand efficiency | 0.42
O=C(CCl)NC(c1ccc(F)c(Cl)c1)C(F)(F)F (stereo not drawn) | UCHL1 | covalent, intact protein LC-MS |  | 12.5 µM |  | labelling | 9.28%
O=c1nc(SCc2cc(F)cc(C(F)(F)F)c2)nc(SCc2csc3ccc(Cl)cc23)[nH]1 | TOP2A (Homo sapiens, UniProt P11388) | DNA relaxation |  | 7.8 µM |  | mean relaxed DNA | 66.2%
CC[C@H]1OC(=O)[C@H](C)[C@@H](O[C@H]2C[C@@](C)(OC)[C@@H](O)[C@H](C)O2)[C@H](C)[C@@H](O[C@@H]2O[C@H](C)C[C@H](N(C)C)[C@H]2O)[C@](C)(O)C[C@@H](C)CN(C)[C@H](C)[C@@H](O)[C@]1(C)O | uncharacterized protein (Saccharopolyspora erythraea, UniProt A4F7P9) |  |  | concentration not given, pH 7.6, 20 °C, together with: p-nitrophenyl-β-D-glucopyranoside |  | apparent Km | 4230 ± 240 µM
COc1ccc(S(=O)(=O)Oc2ccc(C=O)cc2OC)cc1 | UCHL1 | covalent, intact protein LC-MS |  | 12.5 µM |  | labelling | 12.2%
CCN(c1ccccc1)S(=O)(=O)c1ccc(Cl)c(C(=O)Nc2ccccc2N2CCC(C)(C)C2=O)c1 | N-myristoyltransferase (Cryptosporidium parvum, UniProt Q5CV46) | enzyme activity, inhibitor |  |  | relative to: HsNMT1 IC50 over target IC50 | selectivity ratio | > 9 fold
c1cc(-c2nc(NCCCN3CCCC3)c3ccccc3n2)nc(-c2nc(NCCCN3CCCC3)c3ccccc3n2)c1 | T2, G-quadruplex DNA (Homo sapiens) | thiazole orange displacement, competitor, FID |  | 0.25 µM DNA, pH 7.4, 25 °C, KCl 100 mM, together with: thiazole orange 0.50 µM |  | IC50 | 0.273 µM
CSC(=C(C#N)S(=O)(=O)c1cc(C)ccc1C)N1CCCCC1 | UCHL1 | covalent, intact protein LC-MS |  | 12.5 µM |  | labelling | 17.3%
CN(C)CCOC1=Cc2ccccc2Sc2ccc(Cl)cc21 | Voltage-dependent P/Q-type calcium channel subunit alpha-1A | ion current, antagonist, automated patch clamp |  |  |  | IC30 | 2.71 µM
O=c1[nH]c2ccc(NS(=O)(=O)c3cc(Cl)cc(Cl)c3O)cc2s1 | malate dehydrogenase | enzyme activity, inhibitor |  | 200 µM, pH 7.0, 1% DMSO, aggregation counter-screen |  | remaining activity | 73%
Nc1ncnc2c1ncn2[C@@H]1O[C@H](COP(=O)(O)OP(=O)(O)O)[C@@H](O)[C@H]1O | GUK1 (Homo sapiens, UniProt Q16774) | ITC |  | molar ratio 3.736 |  | ΔH | -0.0961 kcal/mol
CCCN1C[C@H](CSC)C[C@@H]2c3cccc4[nH]cc(c34)C[C@H]21 | Voltage-dependent P/Q-type calcium channel subunit alpha-1A | ion current, antagonist, automated patch clamp |  |  |  | IC30 | 25 µM

Compound | target | assay | system | conditions | scale | measurement | value
CCCCCCCCC(=O)c1cc(O)c(O)c(O)c1 | Vitamin D3 receptor (VDR, Homo sapiens, UniProt P11473) | reporter gene, Gal4 hybrid reporter |  | 10 µM | relative to: vehicle | activation | 3.41 fold
N#CC(=Cc1cccc(O)c1)C(=O)NCc1ccc(Cl)cc1 | UCHL1 | covalent, intact protein LC-MS |  | 12.5 µM |  | labelling | 24.4%
CCN1CCC[C@H]1CNC(=O)c1c(O)c(Cl)cc(Cl)c1OC | G protein-coupled receptor 88 (Homo sapiens, UniProt Q9GZN0) | β-arrestin recruitment, TANGO luminescence, measured: GPR88 |  | concentration not given | relative to: basal luminescence | log2 fold change | -0.244
O=C(O)c1ccc([N+](=O)[O-])cc1 | BEST1 | whole-cell patch clamp | HEK293 transiently expressing channel | concentration not given, membrane potential -60 mV |  | current density | -24.6 pA/pF and -58.5 pA/pF and -59.5 pA/pF and -73.3 pA/pF and -41.8 pA/pF and -25.2 pA/pF and -42.4 pA/pF
O=c1nc(SCc2cc(F)cc(C(F)(F)F)c2)nc(SCc2ccc3nc(Cl)ccc3c2)[nH]1 | TOP2B (Homo sapiens, UniProt Q02880) | decatenation |  | 31.25 µM, replicate 2 |  | decatenated DNA | 0.55%
O=C(O)c1ccoc1S(=O)(=O)NCc1cc(-c2ccccc2)no1 | malate dehydrogenase | enzyme activity, inhibitor |  | 200 µM, pH 7.0, 1% DMSO, aggregation counter-screen |  | remaining activity | 104%
COc1cc(Nc2ncc3c(n2)-c2ccc(Cl)cc2C(c2c(F)cccc2OC)=NC3)ccc1C(=O)O | MRCK alpha (CDC42BPA) | inhibitor, biochemical kinase |  | 1 µM |  | remaining activity | 100%
Cc1cc(-c2ccnc3[nH]cc(F)c23)cc(F)c1[C@@]1(O)[C@H](C)CN(C(=O)CN)C[C@@H]1C | LATS1 (Homo sapiens, UniProt O95835) | ATP/ADP probe binding, KiNativ | HEK293T lysate | 1 µM, Lys1 peptide ALYATKTLR |  | probe labelling inhibition | 80.8%
COc1cc(C(=O)[O-])cc(COC(=O)N(C)C(=O)c2ccc(N3C(=S)N(c4ccc(C#N)c(C(F)(F)F)c4)C(=O)C3(C)C)cc2F)c1OP(=O)([O-])[O-].[Na+].[Na+].[Na+] | Alkaline phosphatase, placental type (Homo sapiens, UniProt P05187) | substrate |  | 100 µM, pH 7.6, 37 °C |  | drug formation rate | 1.81 pmol/min
CC[C@@H]1[C@H](F)C(=O)N[C@@H]1COc1nccc2cc(C(N)=O)c(OC)cc12 | STK38L (Homo sapiens, UniProt Q9Y2H1) | ATP-site probe binding, ActivX profiling | THP-1 cell lysate | 0.04 mM, Lys2 site |  | inhibition | 7.6%
Cc1nc(S(=O)(=O)Nc2cccc(-n3nn[nH]c3=O)c2)c(Br)n1C | malate dehydrogenase | enzyme activity, inhibitor |  | 200 µM, pH 7.0, 1% DMSO, aggregation counter-screen |  | remaining activity | 97%
O=c1ccc2c(OCCCCOc3ccccc3)c3ccoc3c(O)c2o1 | Kcna3 (Mus musculus, UniProt P16390) | potassium current, blocker | L929 |  |  | Hill coefficient | 1.8
Nc1ncnc2c1ncn2[C@@H]1O[C@H](COP(=O)(O)CP(=O)(O)OP(=O)(O)O)[C@@H](O)[C@H]1O | P2X purinoceptor 1 (P2RX1, Homo sapiens, UniProt P51575, K140A) | saturation binding | HEK293 | 103 nM |  | specific binding | 4710 CCPM and 3280 CCPM and 7890 CCPM
c1coc(-c2n[nH]cc2-c2ccnc3ccccc23)c1 | Histidine protein kinase NIK1 (NIK1, Candida albicans, UniProt Q5A599) | kinase binding, MIB/MS competition | Candida albicans lysate | 1 µM | relative to: DMSO, negative = stronger binding | log2 fold change | -0.21
CC[C@@H]1C(=O)OC[C@@H]1Cc1cncn1C.Cl | Voltage-dependent P/Q-type calcium channel subunit alpha-1A | ion current, antagonist |  | 30 µM |  | inhibition | 10%
N[C@@H](CCC(=O)O)C(=O)O | glc-2 (Caenorhabditis elegans, UniProt Q17328, R340A/R342A/R351A/R352A/R353A/S341A/T283S) | two-electrode voltage clamp | Xenopus laevis oocytes |  |  | median current | 4.5 µA
COc1cccc2c1OCCC2NS(=O)(=O)c1csnc1C(=O)O (stereo not drawn) | malate dehydrogenase | enzyme activity, inhibitor |  | 200 µM, pH 7.0, 1% DMSO, aggregation counter-screen |  | remaining activity | 83%
O=C(COP(=O)(O)O)[C@@H](O)[C@H](O)[C@H](O)COP(=O)(O)O | Phosphoglycerate mutase 1 (Homo sapiens, UniProt P18669) | activator |  | 0.01953 mM, wild-type enzyme, unit not given | relative to no compound | enzyme activity | 0.752 and 1.27 and 1.14
O=C(O)c1ccc(O)cc1 | BEST1 | whole-cell patch clamp | HEK293 transiently expressing channel | concentration not given, membrane potential -80 mV |  | current density | -32.8 pA/pF and -24 pA/pF and -17 pA/pF and -33.2 pA/pF and -29.2 pA/pF and -31.8 pA/pF and -18.5 pA/pF
N#CC(=Cc1ccc(C#N)cc1)C(=O)N1CCCC1 | UCHL1 | covalent, intact protein LC-MS |  | 12.5 µM |  | labelling | 13.7%
CC(=O)C(=O)O | dxs (Escherichia coli, UniProt P77488) | substrate, IspC-coupled DXP formation |  |  |  | Km | 53 to 80 µM
